Experimental data gathered from unrelated publications.
Lines come from different studies, so protocols differ. ± marks the error that the study gave. In brackets after ≈: the same amount, converted by molar mass.
Organism: Staphylococcus aureus

CCCCCCCCCC(=O)N[C@@H](Cc1c[nH]c2ccccc12)C(=O)N[C@H](CC(N)=O)C(=O)N[C@@H](CC(=O)O)C(=O)N[C@@H]1C(=O)NCC(=O)N[C@@H](CCCNC(=O)OC2/C=C/CCCCC2)C(=O)N[C@@H](CC(=O)O)C(=O)N[C@H](C)C(=O)N[C@@H](CC(=O)O)C(=O)NCC(=O)N[C@H](CO)C(=O)N[C@@H]([C@H](C)CC(=O)O)C(=O)N[C@@H](CC(=O)c2ccccc2N)C(=O)O[C@@H]1C (stereo partly drawn) — MBEC (MRSA biofilm, porous glass beads; 24 h, 37 °C, TAG gel): 64 µg/mL
Cc1cc(=O)nc(NC(=O)NCCCCCCNC(=O)NCCCCCCNC(=O)OCCOCCOCCOCCOCCOCCOCC(=O)N[C@@H](CCCCN)C(=O)N[C@@H](CCCCN)C(=O)N[C@@H](Cc2ccccc2)C(=O)N2CCC[C@H]2C(=O)N[C@@H](Cc2c[nH]c3ccccc23)C(=O)N[C@@H](Cc2c[nH]c3ccccc23)C(=O)N[C@@H](Cc2c[nH]c3ccccc23)C(=O)N2CCC[C@H]2C(=O)N[C@@H](Cc2ccccc2)C(=O)N[C@@H](CCCCN)C(=O)N[C@@H](CCCCN)C(N)=O)[nH]1 — LC99.9 (MSSA RN 4220, RPMI medium; 24 h, 37 °C): 15 to 30 µM
CC(C)C[C@H](NC(=O)[C@H](C)NC(=O)[C@@H](N)C(C)C)C(=O)N[C@@H](CC(=O)O)C(=O)N[C@@H](CC(C)C)C(=O)N[C@@H](CC(C)C)C(=O)N[C@@H](CCC(N)=O)C(=O)N[C@@H](Cc1ccc(O)cc1)C(=O)O — growth inhibition (OD600; methicillin-resistant DMST 20646; concentration not given, 18 to 22 h, 37 °C, unheated): 17.9%
[Cl-].[Cl-].[Ru+2].c1ccc2nc3c4cccnc4c4ncccc4c3nc2c1.c1ccncc1.c1ccncc1.c1ccncc1.c1ccncc1 — MIC90 (MRSA ATCC 43300; LED irradiation 470 nm): 16 µM
CC[C@H](C)[C@H](NC(=O)[C@H](CCCCN)NC(=O)[C@H](CCCCN)NC(=O)[C@H](CC(C)C)NC(=O)[C@H](CCCCN)NC(=O)[C@H](CCC(=O)O)NC(=O)[C@H](CCCCN)NC(=O)[C@@H](NC(=O)[C@H](CCCCN)NC(=O)[C@H](CC(N)=O)NC(=O)[C@H](CCCNC(=N)N)NC(=O)[C@H](Cc1ccccc1)NC(=O)[C@H](CCCCN)NC(=O)[C@H](CCCNC(=N)N)NC(=O)[C@H](CC(C)C)NC(=O)[C@H](CCCNC(=N)N)NC(=O)[C@H](CCCCN)NC(=O)[C@H](CCCNC(=N)N)NC(=O)[C@H](CC(C)C)NC(=O)[C@@H](N)CCCNC(=N)N)[C@@H](C)CC)C(=O)NCC(=O)N[C@@H](CCC(N)=O)C(=O)N[C@@H](CCCCN)C(=O)N[C@H](C(=O)N[C@@H](CCC(N)=O)C(=O)NCC(=O)N[C@@H](Cc1ccccc1)C(=O)N[C@H](C(=O)N1CCC[C@H]1C(=O)N[C@@H](CCCCN)C(=O)N[C@@H](CC(C)C)C(=O)N[C@@H](CCC(N)=O)C(=O)N1CCC[C@H]1C(=O)N[C@@H](CO)C(=O)N[C@@H](CCCCN)C(=O)N[C@@H](CCC(N)=O)C(=O)N[C@@H](CO)C(=O)O)C(C)C)[C@@H](C)CC — lethal concentration (inhibition zone; penicillin-resistant P1383): 2.29 µM
CCCCCCCCCCCCCCCC(=O)NCCCC[C@H](NC(=O)[C@H](CCCNC(=N)N)NC(=O)[C@H](Cc1ccc(O)cc1)NC(=O)[C@H](CC(C)C)NC(=O)[C@H](CCCNC(=N)N)NC(=O)CNS(=O)(=O)c1ccc(N)cc1)C(N)=O — survival rate (ATCC 25923, C57BL/6 mouse, pneumonia model; intratracheal, 2 mg/kg): 100%
CCOC(=O)c1cnc(N/N=C/c2c(-c3ccc(C#N)cc3)nc3ncccn23)s1 — inhibition zone (microbial growth, well diffusion; ATCC23235; 100 µg/mL): 16 mm
CC[C@H](C)[C@H](NC(=O)[C@H](CCCCN)NC(=O)[C@H](CCCCN)NC(=O)[C@H](Cc1c[nH]c2ccccc12)NC(=O)[C@H](CC(N)=O)NC(=O)[C@@H](NC(=O)COCCOCCOCCOCCOCCOCCOC(=O)NCCCCCCNC(=O)NCCCCCCNC(=O)Nc1nc(=O)cc(C)[nH]1)C(C)C)C(=O)N[C@@H](CC(C)C)C(=O)NCC(=O)N[C@@H](CCCCN)C(=O)N[C@H](C(=O)N[C@H](C(=O)N[C@@H](CCCCN)C(=O)N[C@H](C(=O)N[C@H](C(=O)N[C@@H](CCCCN)C(N)=O)C(C)C)C(C)C)[C@@H](C)CC)[C@@H](C)CC — LC99.9 (MRSA AMC 201, RPMI medium; 24 h, 37 °C): 7.5 µM
CC[C@H](C)[C@@H]1NC(=O)[C@@H]2CSSC[C@@H]3NC(=O)[C@H](C(C)C)NC(=O)CNC(=O)CNC(=O)[C@H](CCCNC(=N)N)NC(=O)[C@H](CCCNC(=N)N)NC(=O)CNC(=O)[C@H](C(C)C)NC(=O)[C@@H]4CSSC[C@H](NC(=O)[C@H](CC(C)C)NC(=O)[C@H](CCCNC(=N)N)NC(=O)CNC(=O)CNC(=O)[C@H](CO)NC(=O)CNC(=O)[C@H](CO)NC(=O)CNC(=O)[C@@H]5CSSC[C@H](NC(=O)[C@H](CC(=O)O)NC(=O)[C@H](CO)NC(=O)[C@H](CC(=O)O)NC(=O)[C@H](CCCNC(=N)N)NC(=O)[C@H](CCCNC(=N)N)NC(=O)[C@H](CSSC[C@H](NC1=O)C(=O)N[C@@H](CCCNC(=N)N)C(=O)NCC(=O)N[C@@H](CC(N)=O)C(=O)NCC(=O)N[C@@H](Cc1ccc(O)cc1)C(=O)N5)NC(=O)[C@H](CCCNC(=N)N)NC(=O)[C@H](CCC(N)=O)NC(=O)[C@H](CC(C)C)NC(=O)[C@H]([C@@H](C)CC)NC(=O)[C@H](CCCCN)NC(=O)[C@@H]1CCCN1C3=O)C(=O)N1CCC[C@H]1C(=O)NCC(=O)N[C@@H](C)C(=O)N2)C(=O)N[C@@H](Cc1ccc(O)cc1)C(=O)N[C@H]1CSSC[C@H](NC(=O)[C@H](Cc2ccccc2)NC(=O)[C@H](CCCNC(=N)N)NC(=O)[C@H](CCCNC(=N)N)NC(=O)[C@H](CCCNC(=N)N)NC1=O)C(=O)N[C@@H](C(C)C)C(=O)N4 — MIC90 (CAMHB): 12.5 µM (≈ 68.8 µg/mL)
N=C(N)NCCC[C@H](NC(=O)[C@H](Cc1c[nH]c2ccccc12)NC(=O)[C@H](CCCNC(=N)N)NC(=O)[C@H](CCCNC(=N)N)NC(=O)[C@@H]1CCCN1C(=O)[C@H](CCCCN)NC(=O)[C@@H](N)CCCNC(=N)N)C(=O)N[C@@H](Cc1c[nH]c2ccccc12)C(=O)N[C@@H](Cc1c[nH]c2ccccc12)C(=O)N1CCC[C@H]1C(=O)N[C@@H](CCCCN)C(=O)N[C@@H](CCCNC(=N)N)C(=O)N1CCC[C@H]1C(=O)O — serum cytokine level (ELISA, measured: TNF-α; 09057, BALB/c mice, sepsis model; intraperitoneal, 20 mg/kg, 12 h; reference: saline): decreased
CC(=O)N[C@@H](CCCNC(=N)N)C(=O)N[C@@H](Cc1c[nH]c2ccccc12)C(=O)N[C@@H](CCCNC(=N)N)C(=O)N[C@@H](Cc1c[nH]c2ccccc12)C(=O)N[C@@H](Cc1c[nH]c2ccccc12)C(=O)N[C@@H](CCCCN)C(=O)N[C@@H](Cc1ccccc1)C(=O)N[C@H](C(N)=O)C(C)C — survival (calcein leakage flow cytometry; ATCC 33591; 30 µM, 2 h, 37 °C): 3 ± 1%
CC[C@H](C)[C@H](NC(=O)CNC(=O)CNC(=O)[C@H](CO)NC(=O)[C@@H](NC(=O)[C@H](CCCCN)NC(=O)[C@H](CO)NC(=O)[C@H](CC(C)C)NC(=O)[C@H](CCC(=O)O)NC(=O)[C@@H](NC(=O)[C@H](CCC(=O)O)NC(=O)[C@H](CC(N)=O)NC(=O)[C@H](CC(C)C)NC(=O)[C@H](CCCCN)NC(=O)[C@H](CC(N)=O)NC(=O)[C@@H](N)CCSC)C(C)C)[C@@H](C)CC)C(=O)NCC(=O)N1CCC[C@H]1C(=O)N[C@@H](CC(C)C)C(=O)N[C@H](C(=O)N[C@H](C(=O)N1CCC[C@H]1C(=O)N[C@H](C(=O)N[C@@H](C)C(=O)N[C@@H](C)C(=O)N[C@H](C(=O)N[C@@H](CC(C)C)C(=O)NCC(=O)N[C@@H](Cc1ccccc1)C(=O)N[C@@H](CC(C)C)C(=O)N[C@@H](C)C(=O)N[C@H](C(=O)N[C@@H](CC(=O)O)C(=O)N[C@@H](C)C(=O)N[C@@H](Cc1c[nH]c2ccccc12)C(=O)N[C@@H](CC(N)=O)C(=O)N[C@@H](Cc1c[nH]cn1)C(=O)N[C@@H](C)C(=O)N[C@@H](CC(=O)O)C(=O)N[C@@H](CCC(=O)O)C(=O)N[C@@H](CC(C)C)C(=O)N[C@H](C(=O)N[C@@H](C)C(=O)NCC(=O)N[C@H](C(=O)N[C@@H](CCCCN)C(=O)N[C@@H](CCC(N)=O)C(=O)NCC(=O)N[C@@H](Cc1c[nH]c2ccccc12)C(=O)N[C@@H](CCC(=O)O)C(=O)N[C@@H](CCCNC(=N)N)C(=O)N[C@@H](CO)C(=O)O)C(C)C)C(C)C)[C@@H](C)O)[C@@H](C)CC)C(C)C)[C@@H](C)CC)C(C)C — log reduction in CFU (ATCC 25923; MIC, 2 h): 2 log
CCOC(=O)c1cnc(N/N=C/c2c(-c3ccc(Cl)cc3)nc3ncccn23)s1 — inhibition zone (microbial growth, well diffusion; ATCC23235; 100 µg/mL): 12 mm
C=Cc1cc(OC)c2c(c1)c(=O)oc1c2cc(OC)c2c(O)ccc([C@@H]3O[C@H](C)[C@H](O)[C@@](C)(O)[C@H]3O)c21 — bacterial burden decrease (MRSA USA300, mouse epicutaneous infection; 9 mg/kg, day 6): ~7.2 log10 per wound
c1ccc(CN2CCOCCOCCN(CCCCCCCCN3CCOCCOCCN(CCCCCCCCN4CCOCCOCCN(Cc5ccccc5)CCOCCOCC4)CCOCCOCC3)CCOCCOCC2)cc1 — fold enhancement (ethidium bromide activity; 1199B; half MIC, added: ethidium bromide; reference: ethidium bromide alone): 2 fold
ONCc1ccc(F)cc1 — biofilm reduction (MIC, 72 h): ~50%
CC(C)C1=C(OC(=O)Cc2ccccc2)C(=O)C2=C(C=C[C@H]3C(C)(C)CCC[C@]23C)C1=O — MBC (ATCC 25923, MSSA): < 72.2 µM
CC(C)c1ccc2c(c1)CCC1C(C)(CN(CC(O)C[N+](C)(C)C)CC(O)C[N+](C)(C)C)CCCC21C (stereo not drawn) — selectivity index (MRSA ATCC BAA-44, mouse red blood cells; reference: HC50 over MIC): > 3.2
CC1=C[C@@H](C)[C@H]2[C@@H]3C(=O)C(Cl)(Cl)C(=O)[C@H](C)C(=O)O[C@@H](C)/C=C/C=C\[C@@H](C)[C@@H]3C=C[C@@H]2C1 — MIC ratio (Newman resistant mutants; reference: mutant over wild type): ~10 fold
CCCCCCc1ccc(Oc2ccc(Oc3cccc(=O)[nH]3)cc2)c(O)c1 — post-antibiotic effect (RN4220; 4 x MIC, 1 h exposure, 37 °C): 2.04 ± 0.18 h
O.O=[N+]([O-])[O-].O=c1cc[nH]c(=S)[nH]1.[Ag+].c1ccc(P(c2ccccc2)c2ccccc2)cc1.c1ccc(P(c2ccccc2)c2ccccc2)cc1 — inhibition zone diameter (MTCC 740, DMSO; 0.1 mL of 50 mg/mL in 8 mm well, 18 to 24 h): 14 mm
